Measurements collected from several papers.
Each numbered part is a random draw from the data of one study; scales do not carry over between parts.

Sample 1 — method: competition protein-binding microarray; form: double-stranded DNA, one strand shown; medium: in vitro; tested at: 2 µM; added: Pho4 competitor, 0.05 µM; direction: higher = stronger binding
Target: Centromere-binding protein 1, full length, His-tagged (CBF1, Saccharomyces cerevisiae, UniProt P17106, residues 1-351)
UniProt P17106, sequence (whole entry, looked up): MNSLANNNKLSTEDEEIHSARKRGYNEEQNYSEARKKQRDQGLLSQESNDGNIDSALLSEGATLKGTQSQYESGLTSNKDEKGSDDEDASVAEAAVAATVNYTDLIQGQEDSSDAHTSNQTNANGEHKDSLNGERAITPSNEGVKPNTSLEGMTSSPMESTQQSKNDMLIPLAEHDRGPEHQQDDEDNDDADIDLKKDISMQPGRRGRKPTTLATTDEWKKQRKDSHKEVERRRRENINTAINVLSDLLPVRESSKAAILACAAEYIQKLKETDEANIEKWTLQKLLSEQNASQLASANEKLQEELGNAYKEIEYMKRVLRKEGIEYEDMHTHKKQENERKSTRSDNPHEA
Setting: whole 60-bp probe, lowest competitor level
| Oligonucleotide | fluorescence intensity [a.u.] |
| --- | --- |
| AAATTACTAAGTTGTGGTGTGGGTGACGCCGTATGAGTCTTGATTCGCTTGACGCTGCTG | 71.1 |
| GTCTTGTCTCATTTTCACGTGTGGTTCCCCACTTCAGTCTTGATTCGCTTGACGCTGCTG | 478 |
| GCCACCATGGATCCACACGTATTTGGATCATCTTCGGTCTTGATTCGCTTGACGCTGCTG | 66.6 |
| AAAGCGGTAATTTGTCACAGGACTTCACATATCTATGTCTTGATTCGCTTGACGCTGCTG | 137 |
| CCAGTGACAAGTCGGCACGTGAAGAAGCTAGAAGACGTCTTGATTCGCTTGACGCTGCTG | 1080 |
| CAAATCTCGGAATTTATCATGACGGATTACATAACAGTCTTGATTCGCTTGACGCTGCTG | 101 |
| ATCTCTGTCAACTGCCTCGTGCTAAAAGCAGGATTGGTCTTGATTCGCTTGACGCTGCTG | 131 |
| CGTCCTAGTGATTTTCACGTGAGATCCATGAGGAAGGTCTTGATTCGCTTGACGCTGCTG | 1000 |
| TAAACGAGAGAGATGGGCATGACAGTAGGTAGGGCAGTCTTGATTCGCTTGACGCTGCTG | 69.1 |
| CGGGGTTAAGTTTGGTAGGTGGGTGGCTTGCAGCAGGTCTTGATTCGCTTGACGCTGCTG | 69.5 |
| AGCCTCGGAAGTCCAAGCGTGTCCTCCTCGAAAAAGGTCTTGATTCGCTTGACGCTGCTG | 80.1 |
| CTAACGAAGGTTTTACACGTGTTTTACAAGCCAAGTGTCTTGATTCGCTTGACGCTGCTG | 1440 |
| CTTCTGTAAATTTGTCACTTGACTTGACGCGCCCCGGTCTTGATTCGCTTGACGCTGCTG | 193 |
| CATACCCAACCTTGCGTAGTGGGTGAAGATATTTGTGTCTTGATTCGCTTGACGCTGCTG | 71.2 |
| CTTCTGTAAATTTGCTATGTGGGTGGACGCGCCCCGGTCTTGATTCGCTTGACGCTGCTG | 80.4 |
| GGTAGTAGAACCCGTCACGTCATTACTTGATGTTGCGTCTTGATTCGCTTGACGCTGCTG | 103 |
| AAATTACTAAGTTGAGCTGTGGGTGACGCCGTATGAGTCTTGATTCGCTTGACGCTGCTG | 68.4 |
| AAATGTTGCTGCATAACCGTGCGATAAAACCTCATAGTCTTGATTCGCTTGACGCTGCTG | 77.5 |
| AAATTACTAAGTTTACACGTGTTTTACCCCGTATGAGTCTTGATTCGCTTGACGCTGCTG | 1210 |

Sample 2 — method: RNA Bind-n-Seq; form: RNA; medium: in vitro; tested at: 365 nM; reference: no-protein control; direction: higher = stronger binding
Target: RNA binding protein fox-1 homolog 2, RRM domain, GST-SBP tag (RBFOX2, Homo sapiens, UniProt O43251-10, residues 100-194)
Setting: natural RNA segment, single round, ends assumed
Residues (chain): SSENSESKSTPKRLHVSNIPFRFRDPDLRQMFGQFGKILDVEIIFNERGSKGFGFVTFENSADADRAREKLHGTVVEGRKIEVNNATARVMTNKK
| Oligonucleotide | RBNS enrichment (R) |
| --- | --- |
| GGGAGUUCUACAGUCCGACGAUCUUGCCAUCCUAUUCUUGGCUCAUCCAGUGUUAAUGCACUUUCCACAGUUGGACGUGGUGUUAGUUUUAGACAAACGGGUUUCAUUAUUAUUCCUCUUUGCCUUCUCAAUGUGGAAUUCUCGGGUGCCAA | 0.405 |
| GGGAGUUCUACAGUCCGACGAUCAUGGUCACCAAAUUCUACUUCCAGGAGGACGAGUAUACUGCCCAGGCCUGCCUGUUCCCAUUCUUGCAUGGCAAGGACUGCAGGGACUGCCAGUCCCCCUGCCCCAGGGCUGGAAUUCUCGGGUGCCAA | 1.24 |
| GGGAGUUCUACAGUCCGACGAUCUGAUAGAACAAGAGCCCAGGCUUCCUGUUUCCAAGUCACCUGUGUUUCCUGGGACCAAAUAAUGAGCACCUGCUGGAGUCUGGGCAGAGCAGCCUGGCUCCCUUCUACCCUGGAAUUCUCGGGUGCCAA | 0.239 |
| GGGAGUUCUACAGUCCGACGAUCUUGCUGCAGGGCAGGAUGCCCACUGUCAGCUCCUGCGCUUCCAGGCACAUCAACAGCAGGGCAACAAGGCAGAGAAGGCCGGUUCCAAGGAGCAGGGGCCUCGACAAAGGUGGAAUUCUCGGGUGCCAA | 0.352 |
| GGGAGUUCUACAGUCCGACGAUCCCAGUGAAAGCUGUCCUUCCUGUAUUCUGUUCUCUGGUAAUGUAAUAAGCAUGAUGGUGCCUUCUAUUACAUCAUUCCAGUCUUGCUGGUGAUCCUGUACGGUGUGGUCUUGGAAUUCUCGGGUGCCAA | 2.35 |
| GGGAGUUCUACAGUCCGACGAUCGCUGUUUUUGAACACGGGGUCAUUCUGCAGUCAGGACGAACCGGUCCCCGUCGCAGACGGAGUGCACGUGCCCUGCGCCACAUCCUCACGCUCGGUGGAGGGACGCGUGCUGGAAUUCUCGGGUGCCAA | 0.279 |
| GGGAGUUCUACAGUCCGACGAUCCCCUGCACCUCGCACAGAACCAAGAGCCACCAGCCUCCUGAUGGCAGGGGCCUAGCCCUGGGCAUAUUCAUUUGUUUGCUUCUCUGGGACAGUAUGCCCUGCCUUCCCUGUGGAAUUCUCGGGUGCCAA | 0.886 |
| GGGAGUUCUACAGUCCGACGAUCUGCAACACGGACCCCACCAGAGCUCUUGGAUACCCCCCUAGAUCCAUGUGGCUUUAUGUGAGGGGACUGAAUGCAGACACACCAUAGCCCCCUUCUACUACUUUCCCUCUUGGAAUUCUCGGGUGCCAA | 0.425 |

Sample 3 — method: RNA Bind-n-Seq; form: RNA; medium: in vitro; tested at: 1 µM; setting: whole 134-nt RNA, ends assumed; added: 150 mM KCl; reference: input library; direction: higher = stronger binding
Target: Ras GTPase-activating protein-binding protein 1, RRM domain (G3BP1, Homo sapiens, UniProt Q13283)
UniProt Q13283, sequence (whole entry, looked up): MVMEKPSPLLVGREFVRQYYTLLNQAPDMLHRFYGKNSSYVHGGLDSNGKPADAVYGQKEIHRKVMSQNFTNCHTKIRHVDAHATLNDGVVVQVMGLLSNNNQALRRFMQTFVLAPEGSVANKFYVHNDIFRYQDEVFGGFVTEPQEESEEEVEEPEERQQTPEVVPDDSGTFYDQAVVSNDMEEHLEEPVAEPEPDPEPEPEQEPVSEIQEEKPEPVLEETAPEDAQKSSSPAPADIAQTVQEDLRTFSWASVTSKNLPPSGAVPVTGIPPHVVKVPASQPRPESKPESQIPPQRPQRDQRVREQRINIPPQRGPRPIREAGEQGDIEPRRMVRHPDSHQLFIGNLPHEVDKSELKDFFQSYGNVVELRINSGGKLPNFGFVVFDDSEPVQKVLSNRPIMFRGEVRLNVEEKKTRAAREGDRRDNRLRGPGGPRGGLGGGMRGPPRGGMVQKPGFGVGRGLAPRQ
| Oligonucleotide | log2 enrichment |
| --- | --- |
| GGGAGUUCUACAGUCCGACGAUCAGUCCUGUGCUACACAUCGUAUGUACCGAAUCGGGUUUUUGGUUUUUGGGGUUUUUGGAAAGUAUUAUGUUACGCCGUUCGGAUCUGCACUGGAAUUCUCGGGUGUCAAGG | -0.106 |
| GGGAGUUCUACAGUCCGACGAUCUGUGCUACACAUCGUAUGUACCGAAUCGGGGAAAAAAAGGGGAAAAAAAGGGAAAAAAAGGGGAAAGUAUUAUGUUACGCCGUUCGGAUCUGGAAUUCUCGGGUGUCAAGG | 0.116 |
| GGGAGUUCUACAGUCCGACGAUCUAACUUUAGAGAAGGAUCUGAUGGAUAUGGCAGUGGACGUGGAUUUGGGGAUGGCUAUAAUGGGUAUGGAGGAGGACCUGGAGGUGGCAAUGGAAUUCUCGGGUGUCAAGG | -0.874 |
| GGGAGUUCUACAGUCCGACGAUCUCCUUUCUGUCAUUUUACACCCACAGUUGAAGAUUCCUGUCUCUGGAUCCAAAUCAGAGGGCCUUCUCUACGUCCACUCAUCCAGAGGUGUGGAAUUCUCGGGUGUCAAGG | -0.214 |
| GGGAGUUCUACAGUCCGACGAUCCCUGUGCUACACAUCGUAUGUACCGAAUCGGGGCCCCCCGGGGCCCCCCGGGCCCCCCGGGAAAGUAUUAUGUUACGCCGUUCGGAUCUGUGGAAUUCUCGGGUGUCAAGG | -0.59 |
| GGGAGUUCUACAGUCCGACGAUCCUGUGCUACACAUCGUAUGUACCGAAUCGGGUUUUUUUGGUUUUUUUGGGUUUUUUUGGGGAAAGUAUUAUGUUACGCCGUUCGGAUCUGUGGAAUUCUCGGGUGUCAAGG | -0.285 |
| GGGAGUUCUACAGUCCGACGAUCACCAUGCAGGUGGGCAUCUUUGGGAAGUGGGGCAAGGGGGGGAUAGGGAGGGGGGUAAAAAUUUGGGAACAGGUGGUCCCAGGUCGUUUCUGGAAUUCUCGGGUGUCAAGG | -0.39 |
| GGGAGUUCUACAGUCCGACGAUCAGUCCUGUGCUACACAUCGUAUGUACCGAAUCAAACCCCCCCAAACCCAAAUUUAAAAAAGUAUUAUGUUACGCCGUUCGGAUCUGCACUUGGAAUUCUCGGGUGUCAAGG | -0.141 |
| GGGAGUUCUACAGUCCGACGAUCACCAUGCAGGUGGGCAUCUUUGGGAAGCGGGGCAAGGGGGGGAUAGGGAGGGGGGUAACACUUUGGGAACAGGUGGUCCCAGGUCGUUUCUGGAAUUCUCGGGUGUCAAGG | -0.507 |

Sample 4 — method: protein binding microarray; form: double-stranded DNA, one strand shown; medium: in vitro; tested at: not given; reference: not given; direction: higher = stronger binding
Target: Histone acetyltransferase KAT6A, winged helix 2, GST fusion (KAT6A, Homo sapiens, UniProt Q92794, residues 85-181)
Setting: 8-mer, flanks averaged, mean of 2 arrays, mostly near background
Construct (chain): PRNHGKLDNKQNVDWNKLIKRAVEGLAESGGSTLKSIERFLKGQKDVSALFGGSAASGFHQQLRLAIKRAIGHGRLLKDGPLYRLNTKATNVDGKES
| Oligonucleotide | E-score |
| --- | --- |
| ATAGACCC | -0.0941 |
| GAATATTA | 0.0525 |
| AGGGCGAC | 0.0737 |
| ATGTGGTC | -0.0111 |
| ACCGTCAT | -0.112 |
| CAAGTTCG | -0.00694 |
| AGAAAGTA | 0.117 |
| AACTGAAC | -0.197 |
| AAATATGT | -0.0837 |
| CTACCAGA | -0.000465 |
| TCTAATCA | 0.104 |
| AGATCCCG | 0.203 |
| CGGTACTC | -0.0217 |
| CGGTCAGC | 0.166 |
| AGTCGTAT | -0.123 |
| CCTAGCAC | -0.0259 |
| ACGTAAGG | -0.277 |
| CGGGAGAG | 0.0581 |
| GACTACAA | -0.13 |
| AGCGCCTC | -0.0146 |
| ACTAGGCT | -0.0201 |
| ATTTAAGC | 0.0611 |
| GATTGACA | -0.0509 |
| GTGCTGCA | 7e-05 |

A few entries again (sample 4):
| Oligonucleotide | E-score |
| --- | --- |
| GTGCTGCA | 7e-05 |
| GACTACAA | -0.13 |
| ATTTAAGC | 0.0611 |
| CGGTCAGC | 0.166 |
| CCTAGCAC | -0.0259 |
| ACTAGGCT | -0.0201 |
| AGCGCCTC | -0.0146 |
| ATAGACCC | -0.0941 |
